Published values gathered from unrelated publications.
Numbered parts are unrelated; each lists some results of a single study.

Sample 1 — method: RNA Bind-n-Seq; form: RNA; sample: in vitro; concentration: 200 nM; notes: whole 134-nt RNA, ends assumed; with: 150 mM LiCl; reference: input library; direction: higher = stronger binding; measurement: log2 enrichment; all molecules: 7-deaza-guanosine replaces G
Target: Fragile X messenger ribonucleoprotein 1, C-terminal low-complexity region (Fmr1, Mus musculus, UniProt P35922)
All sequences stand within: GGGAGUUCUACAGUCCGACGAUC … UGGAAUUCUCGGGUGUCAAGG
Sequence = UGUGCUACACAUCGUAUGUACCGAAUCGGGGAAAAAAAGGGGAAAAAAAGGGGAAAAAAAGGAAAGUAUUAUGUUACGCCGUUCGGAUCU; value = 0.797
Sequence = AAGUCCUGUGCUACACAUCGUAUGUACCGAAUCGGGAAAAGGAAAAGGAAAAGGGGAAAGUAUUAUGUUACGCCGUUCGGAUCUGCACUU; value = -0.356
Sequence = CACAGACAACACGCACCCACACAGACACAGAGGGAACGGGUUGGGAUGGGGACAGGGUGCACAGCAGGGCGGGGUAGGACCCCAGCCCCU; value = -1.71
Sequence = CUGUGCUACACAUCGUAUGUACCGAAUCGGAAAAAAAGGGGAAAAAAAGGGAAAAAAAGGGAAAGUAUUAUGUUACGCCGUUCGGAUCUG; value = -0.305
Sequence = ACCAUGCAGGUAAACAUCUUUGGGAAGUGGGGCAAGGGGGGGAUAGGGAGGGGGGUAACACUUUGGGAACAGGUGGUCCCAGGUCGUUUC; value = 1.12
Sequence = CCUGUGCUACACAUCGUAUGUACCGAAUCGGGGUUUUUGGGGAAAAAGGGGAAAAAGGGGAAAGUAUUAUGUUACGCCGUUCGGAUCUGC; value = -0.58
Sequence = UGGCCCUGGUGGCAUGCGGGGAGGAAGAGGUGGCCUCAUGGAUCGUGGUGGUCCCGGUGGAAUGUUCAGAGGUCGCCGUGGUGGAGACAG; value = -0.712
Sequence = UGGCCCUGGUGGCAUGCGGGUAGGAAGAGGUGGCCUCAUGGAUCGUGGUGGUCCCGGUGGAAUGUUCAGAGGUGGCCGUGGUGGAGACAG; value = 0.296
Sequence = UUCUUACAUGUGUAAUCUUCUUCUCCUAGGGCGGCAGAACUCAUGACAAGAACAAGCUCUGUGGUGACACUGGAAGUAGCAAAGCAGGGU; value = -0.0507
Sequence = CAAGUCCUGUGCUACACAUCGUAUGUACCGAAUCGGGUUUUUUUGGGUGGGAGGGAAAGUAUUAUGUUACGCCGUUCGGAUCUGCACUUC; value = -0.353
Sequence = UCCUGUGCUACACAUCGUAUGUACCGAAUCGGGGAAAGGGGAAAGGGGAAAAAAAGGGGAAAGUAUUAUGUUACGCCGUUCGGAUCUGCA; value = 0.488

Sample 2 — method: RNA Bind-n-Seq; form: RNA; sample: in vitro; concentration: 100 nM; reference: input RNA pool; direction: higher = stronger binding; measurement: bound/input enrichment
Target: RING finger protein unkempt homolog, zinc fingers 1-6, SBP tag (UNK, Homo sapiens, UniProt Q9C0B0, residues 30-357)
Sequence of UniProt Q9C0B0 (30-357, looked up): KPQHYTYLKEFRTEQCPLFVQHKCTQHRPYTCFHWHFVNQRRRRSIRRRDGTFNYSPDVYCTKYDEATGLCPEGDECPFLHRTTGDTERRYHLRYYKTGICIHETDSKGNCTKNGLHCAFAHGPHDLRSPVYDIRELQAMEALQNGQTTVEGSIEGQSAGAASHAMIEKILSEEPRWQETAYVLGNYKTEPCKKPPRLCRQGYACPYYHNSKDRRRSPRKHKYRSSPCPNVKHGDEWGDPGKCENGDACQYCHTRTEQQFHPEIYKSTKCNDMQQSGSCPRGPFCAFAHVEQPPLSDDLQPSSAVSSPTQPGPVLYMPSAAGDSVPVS
Notes: RNA with constant flanks, vertebrate orthologous sites, ends assumed
All sequences stand within: GGGAGUUCUACAGUCCGACGAUC … CAACAGAGGAUUGAGCAUCA
Sequence = CGGCAGAUUCUCUCAUAGGAAGAGCUGCACACAUUGCUGUUCUUGAUUCAGAAAUAUUUUUAGAAAAAUUCUUUCUUGUUGCUGCCCUAAAAUAUUUUCAGUAGGGAAUAGCAUUCUAAG; value = 1.31 ratio
Sequence = UCCCCGUUACCCCUAAAGUAGAACAUUUUUUAAAUUGUGUUGCCACCACUUCUAAAAAUUUAGCAACAUUAGAAUAGGACACUAAUGAAGUAAGAAAUUUUGCUUGUUAUUUUGCAAUCC; value = 4.9 ratio
Sequence = GCUCUAGUUCUUAACAACCGACACUCCCAAAAGAUUUAGAAAAAAGUUUACGACAUAAUCUAGUUUACAGAAAAAUCUUGUGCUAGAAUACUUUUUAAAAGGUAUUUUGAAUAUCAUUAA; value = 0.831 ratio
Sequence = CCGAAAGGCCAGAUCCCCUCUCCCCUUCUACUGCUUCUACCAACUGGAAGCACAGAAAACUAGAAUUUCAUUUAUUUUGUUUUUAAAAAUACAUGUUGAUUUCUUGUAACAUCCAAUAGG; value = 0.377 ratio
Sequence = UGUAUGUAGAGAAAAAUUUUCAUUGACCCCCCCCAUUGUGAAAUUCCCUAGCAAUUUAUUUAGAAUCUUAAAUUUUCUAAUUAAAGCUCAUUGUAUUAGUCAUUUUUAGCAUAAUUAAAA; value = 2.77 ratio
Sequence = UCCUCUGAACCCCAUAUCUUCUGUUUCAUAAUGCAGAAGUGUUCUUUUCAAUUAUAUUAGUGGACUUGUUUUAAUUUUAGAGAAACUUCCAGUAAGAUACUAUGGGCUGACAUGGAAAAA; value = 2.84 ratio
Sequence = GUUGUGACCCAUUUAACAUACACAAAAAACUAGCCAAAAAAAAUUUGCAUGUAAUUGACUUAGAUGAUGCCACUUUUCUGAGUGCAAAAUUUGGAAGACAACUUGUACCUGGUUGGAAGC; value = 1.42 ratio
Sequence = CUUAAUUAGAGGACAAUAUAUGUUUCAUAAGGAAGAGUCUUUAUAAUUUUGUUUGUCAGAUAGUAUUUUGGAAUUUGUAUAAUGAGGAUGUUUAGAAGCCAUAUAAGUGGCUUUUUUUUU; value = 0.442 ratio
Sequence = AUCAUGGACGCUUUUACCUACCUCAGUGAGGUAACGUCUCCCCUGACGUUUGGUUGGCACUAGGGCCCAUCACACCUAAUCUGUCUUUCCACAUUUCAUCUCUUUUUGCUCACACUCAUC; value = 0.915 ratio
Sequence = GUUGUGACCCAUUUAACAUACACAAGAAGCUAGCCAAAAAGAACCUGCACGUCAUUGACUUAGAUGAUGCCACUUUUCUGAGCGCCAAGUUUGGAAGACAGCUUGUACCUGGUUGGAAGC; value = 0.556 ratio
Sequence = GGUUGAUGUUCUGAAGAACCACUUAGUAAAAGAAGGUCGAGUAGAUGAAGAAAUUGCACUUAGAAUUAUCAAUGAGGGUGCUGCCAUCCUUCGGAGAGAAAAAACCAUGAUAGAAGUAGA; value = 1.48 ratio

Sample 3 — method: protein-binding microarray; form: double-stranded DNA, one strand shown; sample: in vitro; concentration: 2540 nM top; notes: 60-bp whole probe; with: salmon DNA 0.4 mg/ml; reference: random background probes; direction: higher = stronger binding; measurement: fitted relative affinity; all sequences stand within: GCCTAGCAC … GTCTTGATTCGCTTGACGCTGCTG
Target: Interferon regulatory factor 3, full length, phosphomimetic (IRF3, Homo sapiens, UniProt Q14653, residues 1-427, S386D/S396D/S398D/S402D/T404D/S405D)
Target sequence (chain): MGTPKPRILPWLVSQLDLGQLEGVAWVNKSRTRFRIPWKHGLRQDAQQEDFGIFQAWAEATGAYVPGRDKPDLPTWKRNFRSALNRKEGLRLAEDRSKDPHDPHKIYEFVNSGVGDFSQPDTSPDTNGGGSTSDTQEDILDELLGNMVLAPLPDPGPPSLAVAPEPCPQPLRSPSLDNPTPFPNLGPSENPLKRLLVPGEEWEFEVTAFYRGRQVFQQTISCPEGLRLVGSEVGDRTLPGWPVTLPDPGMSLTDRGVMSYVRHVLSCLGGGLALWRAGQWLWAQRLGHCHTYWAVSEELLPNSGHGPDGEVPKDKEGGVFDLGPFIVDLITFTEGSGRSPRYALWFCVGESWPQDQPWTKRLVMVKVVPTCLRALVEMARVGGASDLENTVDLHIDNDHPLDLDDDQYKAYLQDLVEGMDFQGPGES
Sequence = GACGGACTTGGGTATCGGGACGTGCTA; value = -0.377 z-score
Sequence = TCATATATATCATTTAAACTGTGCTAG; value = 1.01 z-score
Sequence = TTAGGACTGGGTCACGGTTAGTGCTAG; value = -0.7 z-score
Sequence = TCAGCTTCTTTTTTATTACTGTGCTAG; value = 1.16 z-score
Sequence = TCAATTTTGAGACTCATACTGTGCTAG; value = 0.311 z-score
Sequence = GACGATATCGGGACTGGATACGTGCTA; value = 0.31 z-score
Sequence = TTAGGACTGGACCATCGGTTAGTGCTA; value = -0.675 z-score
Sequence = TTAGATTTCGGGTTTCGCTTAGTGCTA; value = 2.76 z-score
Sequence = TCAATTTCCATTTTCTAACTGTGCTAG; value = 6.29 z-score
Sequence = GAAGGTTTCGACTTTCGGGACGTGCTA; value = 3.3 z-score
Sequence = TTAGATTTAGGGACTGGATTAGTGCTA; value = -0.462 z-score
Sequence = TTAGGTGTCGGGTATCGGTTAGTGCTA; value = 1.72 z-score
Sequence = TTAGATTTCGGGACTGGGTTAGTGCTA; value = 1.02 z-score
Sequence = TTAGGACTGGGGTATCGGATAGTGCTA; value = -0.289 z-score
Sequence = GACGAACTCAGTCTCGAGACGTGCTAG; value = 0.182 z-score
Sequence = TAGAGGGAGTAAAGGAAAGAGTGCTAG; value = -0.724 z-score
Sequence = GACGGACTGGTCTATCGGGACGTGCTA; value = -0.499 z-score
Sequence = TTAGGTATCCTAGTGCTTTAGTGCTAG; value = 2.34 z-score
Sequence = GACGGACTGGGCATCGGGACGTGCTAG; value = -1.01 z-score

Sample 4 — method: RNA Bind-n-Seq; form: RNA; sample: in vitro; concentration: 365 nM; reference: no-protein control; direction: higher = stronger binding; measurement: RBNS enrichment (R)
Target: RNA binding protein fox-1 homolog 2, RRM domain, GST-SBP tag (RBFOX2, Homo sapiens, UniProt O43251-10, residues 100-194)
Notes: natural RNA segment, single round, ends assumed
All sequences stand within: GGGAGUUCUACAGUCCGACGAUC … UGGAAUUCUCGGGUGCCAA
Target sequence (chain): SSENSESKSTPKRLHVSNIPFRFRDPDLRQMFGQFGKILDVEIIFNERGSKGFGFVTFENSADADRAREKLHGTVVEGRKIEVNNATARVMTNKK
Sequence = GUGGUGGCUCACACCUGUAAUCUCGGCACUUUGGGGGGCUGAGACAGGCGGAUCACCUGAGGCCAGGAAUUCAAGACCAGCCUGGCCAACAUGGUGAAACCCUAUCUCCA; value = 0.28
Sequence = GAGACACGGGGAUUUGGGGUUCUCUGCUUGAAUGUCUUCUCCUUUACCACCUCACCUUGUUGGUACCUCCCUCCCUGGAUCUCUGAGCCAGCAGCCAGGAGGACCUGACC; value = 0.628
Sequence = GCCCUCUGGUUUCCCAGCGCAGCCUCUCAUACAGUGGACUGACAGCCUGCACUCUGUUUAGUCAGCCGACUCAGGUUAUCUUCAGGGAAGGUAUGGAGGCAUGGUUUGUU; value = 0.567
Sequence = AGCCUGAGAGCUCCAAGGAACAAGCUGUGACAACCAGGAGCCCUGUCUGUGGGUUCGUCUGCCCAGGGCCUGGAGCCCAAGCCCUGUGUUCCUGGGGAAGCUGGGGACUU; value = 0.491
Sequence = CUCUGCUGUUUGGUCUUCACUCUCUCUUCCUUGGAGGGAAAGCUACAAGAGACUCUCUUUUUAAUUCCUUGAGUACCCUUUGCCCCACUUCCAAGAGAGGACAGCAAGUC; value = 0.302
Sequence = CAGCCCCCAUAUGCACCCACCCUGUCGCUAUCUUGGAUGGCCCGCUCUGGGAGAUGUUGGGUGUUUUAAGGUUACUGAACCUACAAAGGCCCCUCCUCCCUGACCACCCA; value = 0.815
Sequence = ACACCAUCACAGCCCCCGGAGACCUGCGGAGGAUCUACUUAUGAGCUAGCUGUCUAGGCAGGCCUUGCCUCGAGCAACGCCCCUGCCCAGCCUCUGUGACAGUGACUCCC; value = 0.256
Sequence = UGGUACCCUGGCUGCCCAGGCCAGUGCUGCAGCUCUGCAGAAUGUUCAGCAUGCCAUUUCUGACUGGCACAUCUCGUGAAGUUUCAUAGAAACAAGGAGUUGGCAUCUUG; value = 2.56
Sequence = GUUGUCUGACCAUAACAUGAUUUUUUUCUAAGAUGAAAUCCACAGAAGUUCUUAACUGUUAAAAAGUUACUUUUGACUUUGCUAGAUAAGGAGGCGAACCCAAGUGUGUG; value = 0.39
Sequence = UUGUGACACUGGCACUAAGCAAUGUGUGCUCUGCCCAGCACACCUGGACAUGUUCUCUCGGCUGGCUUUCUGUUCCCCGCCUGCCUCCAGGAGGCCAGGGUGGUGGUGCU; value = 0.618
Sequence = GGUGGCUGUGUCUCUCCCCGGUAAUGUCACUGUUUUUAUUCCUUCCAUCUAGCAGCUGGCCUAAUCACUCUGAGUCACAGGUGUGGGAUGGAGAGUGGGGAGAGGCACUU; value = 0.347
Sequence = AAUUUUAAUUUGCUGCUAAGCAAAGACUAGGGACAGGCAAAGAUAAUUUAUGGCAAAGUGUUUAAAUUGUUUAUACAUAAAUAAAGUCUCUAAAACUCCUGUGGACACUG; value = 0.682

Excerpt of the above (sample 4):
Sequence = GUUGUCUGACCAUAACAUGAUUUUUUUCUAAGAUGAAAUCCACAGAAGUUCUUAACUGUUAAAAAGUUACUUUUGACUUUGCUAGAUAAGGAGGCGAACCCAAGUGUGUG; value = 0.39
Sequence = ACACCAUCACAGCCCCCGGAGACCUGCGGAGGAUCUACUUAUGAGCUAGCUGUCUAGGCAGGCCUUGCCUCGAGCAACGCCCCUGCCCAGCCUCUGUGACAGUGACUCCC; value = 0.256
Sequence = GAGACACGGGGAUUUGGGGUUCUCUGCUUGAAUGUCUUCUCCUUUACCACCUCACCUUGUUGGUACCUCCCUCCCUGGAUCUCUGAGCCAGCAGCCAGGAGGACCUGACC; value = 0.628
Sequence = GCCCUCUGGUUUCCCAGCGCAGCCUCUCAUACAGUGGACUGACAGCCUGCACUCUGUUUAGUCAGCCGACUCAGGUUAUCUUCAGGGAAGGUAUGGAGGCAUGGUUUGUU; value = 0.567
